Published values pooled from the literature.
Protocols differ between the studies behind these lines.
Chain of UniProt P37136 (whole entry, looked up): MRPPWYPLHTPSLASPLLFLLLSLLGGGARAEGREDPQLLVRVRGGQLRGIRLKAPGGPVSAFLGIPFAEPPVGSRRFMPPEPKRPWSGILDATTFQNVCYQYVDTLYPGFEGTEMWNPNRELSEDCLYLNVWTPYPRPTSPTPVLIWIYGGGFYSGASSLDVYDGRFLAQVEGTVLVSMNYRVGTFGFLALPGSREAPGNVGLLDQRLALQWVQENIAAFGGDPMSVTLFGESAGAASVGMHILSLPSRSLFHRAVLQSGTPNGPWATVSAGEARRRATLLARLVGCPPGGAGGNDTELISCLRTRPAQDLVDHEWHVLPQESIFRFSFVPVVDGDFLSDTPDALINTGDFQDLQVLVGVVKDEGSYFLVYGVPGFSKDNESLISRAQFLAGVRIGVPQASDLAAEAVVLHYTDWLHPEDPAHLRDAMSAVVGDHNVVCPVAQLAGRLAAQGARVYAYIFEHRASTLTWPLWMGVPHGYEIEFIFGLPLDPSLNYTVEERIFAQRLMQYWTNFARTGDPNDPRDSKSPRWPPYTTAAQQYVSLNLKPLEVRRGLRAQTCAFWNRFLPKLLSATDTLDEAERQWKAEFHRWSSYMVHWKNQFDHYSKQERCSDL

Substance | target or system | assay | system | conditions | scale | measurement | value
phoxim-oxon | Ache (Rattus norvegicus, UniProt P37136) | enzyme activity, inhibitor, Ellman | rat, postnatal day 12, heart homogenate | 15 min, 37 °C |  | IC50 | 12 nM
deucravacitinib |  |  | human | oral, 40 mg, single dose |  | Tmax | 1.25 h
semaglutide |  | measured: leading to treatment discontinuation | human, safety analysis set | concentration not given, 32 weeks, run-in |  | participants with adverse events | 4.2%
maraviroc |  |  | black CYP3A5 poor metabolizers, plasma | 300 mg twice daily |  | Cavg | 287 ng/mL
chicoric acid | IPEC-J2 monolayer |  |  | with: thapsigargin 10 µM | reference: without inhibitor | Papp apical to basolateral | increased

Excerpt of the above:
Substance | target or system | assay | system | conditions | scale | measurement | value
chicoric acid | IPEC-J2 monolayer |  |  | with: thapsigargin 10 µM | reference: without inhibitor | Papp apical to basolateral | increased
